Measurements collected from several papers.
Each numbered part is a random draw from the data of one study; scales do not carry over between parts. Changes are numbered by the printed parent chain.
Sequence of UniProt P08588 (whole entry, looked up): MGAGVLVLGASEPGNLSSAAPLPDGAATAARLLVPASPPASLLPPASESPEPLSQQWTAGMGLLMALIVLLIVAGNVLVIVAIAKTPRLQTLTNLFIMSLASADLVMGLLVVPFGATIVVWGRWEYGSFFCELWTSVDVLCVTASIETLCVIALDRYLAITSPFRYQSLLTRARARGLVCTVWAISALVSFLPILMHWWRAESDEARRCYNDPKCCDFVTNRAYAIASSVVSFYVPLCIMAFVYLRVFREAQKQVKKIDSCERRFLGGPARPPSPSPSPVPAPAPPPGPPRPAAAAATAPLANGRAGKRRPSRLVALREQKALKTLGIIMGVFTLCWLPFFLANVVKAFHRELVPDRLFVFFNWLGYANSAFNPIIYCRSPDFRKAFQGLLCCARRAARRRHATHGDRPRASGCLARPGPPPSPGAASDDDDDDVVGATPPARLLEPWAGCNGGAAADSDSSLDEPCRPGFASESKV

Sample 1
Target: inorganic phosphate, free oxyanion
Technique: microfluidic competitive inhibition
Medium: in vitro, cell-free expressed
Concentration: not given
Notes: derived from inhibition constants, unchanged parent 615000 nM
Reading: lower = stronger binding
Endpoint: phosphate dissociation constant
Starting sequence: PafA, mature enzyme, eGFP fusion (Elizabethkingia meningoseptica, UniProt Q9KJX5); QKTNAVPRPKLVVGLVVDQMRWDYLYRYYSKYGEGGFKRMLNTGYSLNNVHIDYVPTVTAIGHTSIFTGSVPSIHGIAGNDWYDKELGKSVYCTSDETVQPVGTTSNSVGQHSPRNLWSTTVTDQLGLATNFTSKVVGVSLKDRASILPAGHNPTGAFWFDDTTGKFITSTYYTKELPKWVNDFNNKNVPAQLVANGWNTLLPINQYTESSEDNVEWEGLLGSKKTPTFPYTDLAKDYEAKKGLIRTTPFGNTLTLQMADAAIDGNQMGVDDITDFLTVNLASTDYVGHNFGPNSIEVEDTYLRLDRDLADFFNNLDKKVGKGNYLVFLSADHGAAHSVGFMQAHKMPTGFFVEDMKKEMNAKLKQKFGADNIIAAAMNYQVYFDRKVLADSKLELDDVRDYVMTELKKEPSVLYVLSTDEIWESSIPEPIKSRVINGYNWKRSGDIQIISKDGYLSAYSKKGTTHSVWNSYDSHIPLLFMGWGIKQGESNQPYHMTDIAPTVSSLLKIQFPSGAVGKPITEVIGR
Variant = V194A; result = 572 µM
Variant = M496G; result = 192 µM
Variant = K346V; result = 642 µM
Variant = N280V; result = 509 µM

Sample 2
Target: PABPC1L2, full length, GST fusion (mouse, UniProt A0ABA7IW68)
Technique: RNAcompete
Molecule type: RNA
Medium: in vitro
Concentration: 20 nM
Notes: 7-mer, probes averaged, single round
Reference: mean of 7-mers
Reading: higher = stronger binding
Endpoint: 7-mer Z-score
Construct (chain): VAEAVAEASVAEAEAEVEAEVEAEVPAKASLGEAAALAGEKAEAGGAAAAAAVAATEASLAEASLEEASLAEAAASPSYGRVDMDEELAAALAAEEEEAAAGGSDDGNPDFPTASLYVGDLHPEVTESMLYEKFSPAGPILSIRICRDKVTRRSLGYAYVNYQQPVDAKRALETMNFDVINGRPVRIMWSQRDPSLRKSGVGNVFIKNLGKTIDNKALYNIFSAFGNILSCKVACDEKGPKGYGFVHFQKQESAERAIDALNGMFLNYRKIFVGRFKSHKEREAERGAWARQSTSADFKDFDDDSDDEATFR
Sequence = UGGAGCU; result = -0.021
Sequence = GCCGUAC; result = -0.304
Sequence = GGGCUAG; result = 0.26
Sequence = GAGAGCA; result = 0.149
Sequence = GGUCUCC; result = -0.293
Sequence = UCUUUCA; result = -0.322
Sequence = GAGUCAG; result = -0.217
Sequence = GGCCACC; result = -0.222

Sample 3
Target: CCNF, cyclin fold, Cln2 fusion (human)
Technique: yeast growth competition, sequencing
Medium: yeast
Notes: strong parent motif
Reference: not given
Reading: higher = stronger binding
Endpoint: normalised enrichment score
Starting sequence: viral docking peptide; YKVKRRLVFGADD
Variant = YKVKRRLVFGAYD [D12Y]; result = 8.74
Variant = YKVKRRLVCGADD [F9C]; result = 4.12
Variant = YKVKRRLVFGVDD [A11V]; result = 8.52
Variant = YKHKRRLVFGADD [V3H]; result = 8.11
Variant = YKVKRKLVFGADD [R6K]; result = 8.74
Variant = YKVKRRLVFGEDD [A11E]; result = 8.43
Variant = YKEKRRLVFGADD [V3E]; result = 8.16
Variant = YKVKRRLKFGADD [V8K]; result = 9.13
Variant = YKVKNRLVFGADD [R5N]; result = 1.14
Variant = YKVKRRLVIGADD [F9I]; result = 8.05
Variant = YKIKRRLVFGADD [V3I]; result = 9.07
Variant = YKVKKRLVFGADD [R5K]; result = 8.21
Variant = YKVKRRDVFGADD [L7D]; result = 0.28
Variant = YKVKRRLVVGADD [F9V]; result = 5.49
Variant = YTVKRRLVFGADD [K2T]; result = 8.56
Variant = YKVKRRLAFGADD [V8A]; result = 9.26
Variant = YKVKLRLVFGADD [R5L]; result = 1.97
Variant = YKVGRRLVFGADD [K4G]; result = 8.72
Variant = YKVKRRVVFGADD [L7V]; result = 4.94
Variant = YKVKRRLVHGADD [F9H]; result = 1.08
Variant = YKVKRRLCFGADD [V8C]; result = 8.9
Variant = YKVKRRLVWGADD [F9W]; result = 8.62
Variant = YKWKRRLVFGADD [V3W]; result = 8.02
Variant = YKVWRRLVFGADD [K4W]; result = 7.95
Variant = YKVKRWLVFGADD [R6W]; result = 6.08

Sample 4
Substance: H2AC11 (Homo sapiens, UniProt P0C0S8)
Technique: cross-linking MS
Notes: hits only
Endpoint: interaction screen
partner = H2BC3 (Homo sapiens, UniProt P33778); result = cross-linked
partner = H2AC20 (Homo sapiens, UniProt Q16777); result = cross-linked
partner = H2BC21 (Homo sapiens, UniProt Q16778); result = cross-linked
partner = H2BC5 (Homo sapiens, UniProt P58876); result = cross-linked
partner = H2BC26 (Homo sapiens, UniProt Q8N257); result = cross-linked
partner = H2BC9 (Homo sapiens, UniProt Q93079); result = cross-linked

Sample 5
Target: Probable WRKY transcription factor 50, DNA-binding domain (WRKY50, Arabidopsis thaliana, UniProt Q8VWQ5, residues 99-173)
Technique: DNA-protein interaction ELISA
Molecule type: double-stranded DNA, one strand shown
Medium: in vitro, bacterial lysate
Concentration: not given
Notes: whole dsDNA probe, crude lysate protein
Reference: highest signal in screen
Reading: higher = stronger binding
Endpoint: relative absorbance
Target sequence (chain): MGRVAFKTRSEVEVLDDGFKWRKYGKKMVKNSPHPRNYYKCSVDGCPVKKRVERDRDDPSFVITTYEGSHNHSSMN
Sequence = AAAAAACGGGATTCGAAACTTTTTGTAAAA; result = 14.8 % of maximum
Sequence = AAAAAATTCTTAGTTAGATTCACCTCAAAA; result = 22.9 % of maximum
Sequence = AAAAAATGTGGTTACGGCCTCGATGAAAAA; result = 18.6 % of maximum
Sequence = AAAAAATTTTGTTTTTGCTTTTCCTTAAAA; result = 13.7 % of maximum
Sequence = AAAAAATATGCTACTCCACCTTGATGAAAA; result = 19 % of maximum
Sequence = AAAAAAACCTCTTTATTCTCGATTGTAAAA; result = 29.8 % of maximum
Sequence = AAAAAACGCATCATAGCTACGCCCCAAAAA; result = 11.1 % of maximum
Sequence = AAAAAAGTCTAGTCGTAAAAA; result = 88.6 % of maximum

Further values, each from its own experiment
Substance = PhoQ, residues 284 288 289 292 302 303 SLGVVW; target = PhoP, residues 12 14 15 18 19 TPWLV (Escherichia coli, UniProt P23836); assay = Sort-seq, measured: YFP reporter; test system = E. coli; conditions = PhoQ-PhoP variant library, together with: 10 µM Mg2+; how to read = reference: high Mg2+ state, higher = stronger signaling; endpoint = fold induction; result = 19.7
Substance = Fc1cc(C2=CC3CCC(C2)N3Cc2ccc3ccccc3n2)ccc1-c1ccccc1 (centres unmarked); target = ADRB1 (Homo sapiens, UniProt P08588); assay = agonist; endpoint = EC50; result = ≥ 100 µM
